Measured values pooled from the literature.
A part holds a random share of what one study measured. Substitutions count along the parent as printed.

Study 1
Target: Histone acetyltransferase KAT6A, winged helix 2, GST fusion (KAT6A, Homo sapiens, UniProt Q92794, residues 85-181)
Technique: protein binding microarray
Form: double-stranded DNA, one strand shown
Sample: in vitro
Tested at: not given
Notes: 8-mer, flanks averaged, mean of 2 arrays, mostly near background
Baseline: not given
Reading: higher = stronger binding
Endpoint: E-score
Residues (chain): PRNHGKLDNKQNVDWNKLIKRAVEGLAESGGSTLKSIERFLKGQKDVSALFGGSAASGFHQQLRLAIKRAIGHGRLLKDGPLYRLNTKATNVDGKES
TACAAGGA: -0.0281
AACACTGC: 0.0686
CGTACTTC: -0.096
CCCTACCA: -0.0459
ACCACCAT: 7.5e-05
AATCACCC: -0.0488
ACACAAAT: 0.119
ATATATGC: -0.0437
ACTACCCG: -0.00993
TCGATCGA: 0.0484
AACCCAGG: 0.0767
CGCACTTC: -0.0424
AAGCATTG: -0.0691
CTCTCTCC: -0.0532
GGCGCCTA: 0.0956
CTTTTTAC: -0.038
AGCCCCAC: 0.0425
CGGAATTC: 0.00074
CGACCACG: -0.0428
GCGTATCA: 0.13
CGAGTTCC: 0.07
CAGGCGGG: 0.222
TTGGCCAA: -0.161
GGCCACAC: 0.0409
GAGTTTCC: 0.0385

Study 2
Target: RNA binding protein fox-1 homolog 2, RRM domain, GST-SBP tag (RBFOX2, Homo sapiens, UniProt O43251-10, residues 100-194)
Technique: RNA Bind-n-Seq
Form: RNA
Sample: in vitro
Tested at: 365 nM
Notes: natural RNA segment, single round, ends assumed
Baseline: no-protein control
Reading: higher = stronger binding
Endpoint: RBNS enrichment (R)
Shared flanks, not repeated: GGGAGUUCUACAGUCCGACGAUC … UGGAAUUCUCGGGUGCCAA
Construct (chain): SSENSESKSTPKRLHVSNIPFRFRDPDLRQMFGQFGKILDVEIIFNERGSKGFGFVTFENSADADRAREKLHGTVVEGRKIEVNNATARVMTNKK
GUGAGUGUAUCAGAAUGCCAGGGAGGGCACCAGCCCUGAUCCACAGACCUCGGAAAGAUGCCCCUGUUCCUUUGUUGCGGGUGGUUUUGGUAAGGCAGAGCCCUCUGCUG: 1
AAAGGGUCAGGCCCGUCAGCAUCACUGAUGGGAAUAAAAGUAUUAAUGCUUUGUGACAGCCUCUGCCAUAAGAGUUGUGUGGUCCAGGGGGUCUGUGACCCCCCCCAGGG: 0.266
UCUACCCAUUGGCUCAAGCAGAAAUCUGGAAGUCAUCUUUGACUCCUUCCUCUCCCUCCUGAUAAACAUCUAAGCAGUUUCUAAGUCUAGUUUUACCUCUUAAAUAUCUC: 0.46
CUAAUGGCUUUGACUAAAUUACCCCCAUCCUCCUUGCCCGGAAAAGGGAGAGCUAGAGCCACUCACUGUCAUUCUGCUCUGACCUUGAAGGGGGCGGUGUUGGCCUGGCU: 0.315
UCUUCGAGGUGGAUCACAGAGGCUUCUUCAGAUCAGUGCUUGAGUUUGGGGAAUGCGGCCGCAUUCCCUGAGUCACCAGGAAUGUUAAAGUCAGUGGGAACGUGACUGCC: 0.668
UUUAUUUAACCCUGGACUCCGUUUACACAGACAAAGUGACAUCAGAAGGCUGAGCACUUAUCUGGAUCAUUUGGUCAGUUUGGUAAUUCCUGCUCCACACCCCUAUUUUC: 1.28
CUUGAACAAAAUCAGGUCCCCUGGGGUGGAAGUCACAGCCAAGCGCCUUUUUAAGACUUGAGUGGUGGCACUAGCCAGUGUCCCCCAUGGCUGGGCAGUUGAGCACCUGC: 0.233
GUGUUUUAACAGGUUCUCCCGGUGAUGCUGGUGCAUGCUCAAGUUUGAGAACCGCUGCUCUCAUAGACUGCUCCUCCAAGGGGAAGCAGUGUGGAACAGCAGAGAAAGUC: 4.69

Study 3
Target: CCND3, cyclin fold, Cln2 fusion (human)
Technique: yeast growth competition, sequencing
Sample: yeast
Notes: weak parent motif
Baseline: not given
Reading: higher = stronger binding
Endpoint: normalised enrichment score
Starting sequence: WEE1 docking peptide (human); HKTFRKLRLFDTP; partner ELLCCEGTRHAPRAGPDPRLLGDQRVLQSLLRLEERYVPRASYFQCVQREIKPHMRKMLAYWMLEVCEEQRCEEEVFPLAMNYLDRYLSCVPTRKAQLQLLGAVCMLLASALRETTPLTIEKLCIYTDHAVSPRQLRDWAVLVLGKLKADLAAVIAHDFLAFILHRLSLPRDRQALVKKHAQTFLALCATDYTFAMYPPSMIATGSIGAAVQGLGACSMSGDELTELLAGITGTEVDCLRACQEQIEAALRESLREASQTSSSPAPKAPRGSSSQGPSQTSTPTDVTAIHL
F10R: 0.149
L9H: 0.107
D11Q: 0.269
F4A: 0.21
T3F: 0.0947
T3S: 0.0816
D11R: 0.12
R8S: 0.244
L9C: 0.103
L9K: 0.21
P13F: 0.128
K6Q: 0.124
K2W: 0.173

Study 4
Target: Interferon regulatory factor 7, full length, phosphomimetic (IRF7, Homo sapiens, UniProt Q92985, residues 1-503, S471D/S472D/S475D/S476D/S477D/S483D/S484D/S487D)
Chain of UniProt Q92985 (whole entry, unmodified, looked up): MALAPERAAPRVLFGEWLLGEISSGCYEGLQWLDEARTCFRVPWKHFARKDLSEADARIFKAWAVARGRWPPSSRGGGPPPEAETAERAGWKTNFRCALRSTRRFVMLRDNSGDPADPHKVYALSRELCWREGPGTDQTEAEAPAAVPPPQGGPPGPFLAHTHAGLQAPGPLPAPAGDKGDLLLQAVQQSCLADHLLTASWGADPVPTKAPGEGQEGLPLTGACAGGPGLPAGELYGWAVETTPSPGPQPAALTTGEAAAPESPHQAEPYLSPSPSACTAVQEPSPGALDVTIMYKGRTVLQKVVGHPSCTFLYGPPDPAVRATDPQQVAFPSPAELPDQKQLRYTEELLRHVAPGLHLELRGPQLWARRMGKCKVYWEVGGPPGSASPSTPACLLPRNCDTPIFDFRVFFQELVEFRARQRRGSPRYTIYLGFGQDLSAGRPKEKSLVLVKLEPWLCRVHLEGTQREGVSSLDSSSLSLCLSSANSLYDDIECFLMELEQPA
Technique: protein-binding microarray
Form: double-stranded DNA, one strand shown
Sample: in vitro
Tested at: 2200 nM top
Notes: 60-bp whole probe
With: salmon DNA 0.4 mg/ml
Baseline: random background probes
Reading: higher = stronger binding
Endpoint: fitted relative affinity
Shared flanks, not repeated: GCCTAGCAC … GTCTTGATTCGCTTGACGCTGCTG
TTAGGTTTCGGGTATTGGTTAGTGCTA: 5.5 z-score
GACGATATCGGGACTGTAGACGTGCTA: 0.0877 z-score
TACGGACTGGGTTTCGGGACGTGCTAG: 1.55 z-score
TTAAGTTTCGGACTGGGTTAGTGCTAG: 4.32 z-score
TTAGGACTGGGGTATAGGTTAGTGCTA: -0.411 z-score
TTAGGTTTCGGACTGGGTTGGTGCTAG: 3.29 z-score
GACGGTTTCGGTTCGGGGACGTGCTAG: 13.4 z-score
GACGGTTTCCTTATCCTCACGTGCTAG: 3.03 z-score
TTAGGTATCGCGTTTCGGTTAGTGCTA: 2.8 z-score
GACCATTTCAGTATCGAGACGTGCTAG: 1.22 z-score
GACGGTATCGGTTATCGGGACGTGCTA: 0.24 z-score
TTAGGTTTCCTACTACTTTAGTGCTAG: 1.2 z-score
TTCACTTTCTTTACTTCACTGTGCTAG: 3.44 z-score
GTGATCCGTCCGCCTCAGCCGTGCTAG: 0.601 z-score
TTAGATTTTAGACTGGATTAGTGCTAG: -0.558 z-score
CGGCCTCTAGGTTTTCTGAAGTGCTAG: -0.387 z-score
TATAGAGTAGTTTTTCAACCAGTGCTA: -0.00776 z-score
GACTGACTGGGTATCGGGACGTGCTAG: -0.461 z-score
GAAATTTTTTTTCTAACTAAGTGCTAG: 0.107 z-score

Some of these lines once more (study 4):
TTAGGTTTCGGACTGGGTTGGTGCTAG: 3.29 z-score
GACGGTTTCGGTTCGGGGACGTGCTAG: 13.4 z-score
GACGGTTTCCTTATCCTCACGTGCTAG: 3.03 z-score
TTAGGTATCGCGTTTCGGTTAGTGCTA: 2.8 z-score
